Published values from different studies.
Numbered parts are unrelated; each lists some results of a single study. Positions count from the first letter of the parent shown.

Block 1
Target: Sox-I, HMG box (Salpingoeca helianthica)
Method: Spec-seq
Form: double-stranded DNA, one strand shown
Matrix: in vitro
Concentration: not given
Notes: whole probe, mean of replicates
Baseline: not given
Reading: lower = stronger binding
All sequences stand within: GAGTCGTCTCGTCAGCAC … CCGTAGAGCACTCAGGTC
Residues (chain): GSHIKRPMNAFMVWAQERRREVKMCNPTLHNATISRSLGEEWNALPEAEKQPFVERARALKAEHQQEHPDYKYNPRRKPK
Sequence	relative binding energy [ln ratio]
CATGTAT	0.878
CATCCGC	1.1
CATCTCG	1.07
GCGCGTT	1.05
TACTGTT	-0.807
CATAAAA	-0.135
ACCTGTT	-0.401

Block 2
Target: Ras GTPase-activating protein-binding protein 1, full length (G3BP1, Homo sapiens, UniProt Q13283)
Sequence of UniProt Q13283 (whole entry, looked up): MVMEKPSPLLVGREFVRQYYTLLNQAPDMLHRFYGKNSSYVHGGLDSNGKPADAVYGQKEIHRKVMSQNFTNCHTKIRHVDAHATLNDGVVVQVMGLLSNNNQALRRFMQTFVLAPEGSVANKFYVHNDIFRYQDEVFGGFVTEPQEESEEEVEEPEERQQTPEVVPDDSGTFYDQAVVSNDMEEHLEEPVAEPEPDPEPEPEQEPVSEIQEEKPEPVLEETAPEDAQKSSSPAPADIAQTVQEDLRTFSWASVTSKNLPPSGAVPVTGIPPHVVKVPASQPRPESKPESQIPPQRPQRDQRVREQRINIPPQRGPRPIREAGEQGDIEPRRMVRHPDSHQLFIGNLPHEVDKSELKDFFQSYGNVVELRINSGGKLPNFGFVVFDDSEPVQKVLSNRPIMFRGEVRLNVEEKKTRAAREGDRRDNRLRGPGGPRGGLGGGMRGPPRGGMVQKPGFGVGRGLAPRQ
Method: RNA Bind-n-Seq
Form: RNA
Matrix: in vitro
Concentration: 200 nM
Notes: whole 134-nt RNA, ends assumed
Added: 150 mM KCl
Baseline: input library
Reading: higher = stronger binding
Sequence	log2 enrichment
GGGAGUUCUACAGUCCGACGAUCUUUAAGAGCAGCCAGGGAGAUAGUGGCGUUGACUUGAGUGCCGAGUCUCGGGAGUCGUCUGCGACCUCCUCGCAGCGCAGCUCCCCAUAUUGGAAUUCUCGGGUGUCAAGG	0.722
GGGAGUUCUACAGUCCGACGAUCUCAAGUCCUGUGCUACACAUCGUAUGUACCGAAUCGGGAAAGGGUUUGGGUGGGAAAGUAUUAUGUUACGCCGUUCGGAUCUGCACUUCCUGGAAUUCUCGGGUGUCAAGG	1.11
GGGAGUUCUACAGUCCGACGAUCGUCCUGUGCUACACAUCGUAUGUACCGAAUCAAACCCCCAAACCCCCCCAAAUUUAAAAAAGUAUUAUGUUACGCCGUUCGGAUCUGCACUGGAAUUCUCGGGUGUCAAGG	-0.127
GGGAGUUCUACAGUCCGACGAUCCAAGUCCUGUGCUACACAUCGUAUGUACCGAAUCGGUUUUUGGAGGUUUUUUUGGAAAGUAUUAUGUUACGCCGUUCGGAUCUGCACUUCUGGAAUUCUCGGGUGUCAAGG	-0.714
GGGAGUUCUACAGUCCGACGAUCCUCAAGUCCUGUGCUACACAUCGUAUGUACCGAAUCGGGGCCGGCCGGGGCCGGAAAGUAUUAUGUUACGCCGUUCGGAUCUGCACUUCCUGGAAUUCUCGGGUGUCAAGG	-0.296
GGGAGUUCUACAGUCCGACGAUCUCCUGUGCUACACAUCGUAUGUACCGAAUCGGGGAAAAAGGGGAAAGGGGUUUUUGGGGAAAGUAUUAUGUUACGCCGUUCGGAUCUGCAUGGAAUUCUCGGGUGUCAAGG	0.764
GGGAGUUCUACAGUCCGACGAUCAGUCCUGUGCUACACAUCGUAUGUACCGAAUCGGGGAAAAAAAGGGGAGGGGUGGGGAAAGUAUUAUGUUACGCCGUUCGGAUCUGCACUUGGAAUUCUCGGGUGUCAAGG	0.866

Block 3
Target: CCNB2, cyclin fold, Cln2 fusion (human)
Method: yeast growth competition, sequencing
Matrix: yeast
Notes: weak parent motif
Baseline: not given
Reading: higher = stronger binding
Parent: CDC6 docking peptide (human); TLKGRRLVFDNQL; partner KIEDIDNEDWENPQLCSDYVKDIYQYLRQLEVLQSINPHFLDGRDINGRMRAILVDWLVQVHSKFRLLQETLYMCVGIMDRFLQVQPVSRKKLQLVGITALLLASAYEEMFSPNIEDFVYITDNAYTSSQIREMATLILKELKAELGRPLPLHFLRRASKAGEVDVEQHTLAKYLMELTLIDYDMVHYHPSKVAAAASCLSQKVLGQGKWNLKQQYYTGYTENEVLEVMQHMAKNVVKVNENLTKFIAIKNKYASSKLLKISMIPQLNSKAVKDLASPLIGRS
Variant	normalised enrichment score
TLDGRRLVFDNQL [K3D]	-0.355
RLKGRRLVFDNQL [T1R]	0.567
GLKGRRLVFDNQL [T1G]	0.625
TLKGSRLVFDNQL [R5S]	-0.598
TLKGRRLVFDNSL [Q12S]	-0.204

Single results of other studies
Molecule	target	test	system	setting	how to read	quantity	result
PhoQ, residues 284 288 289 292 302 303 HSSMNL	PhoP, residues 12 14 15 18 19 VQALL (Escherichia coli, UniProt P23836)	Sort-seq, item: YFP reporter	E. coli	PhoQ-PhoP variant library, added: 10 µM Mg2+	baseline: high Mg2+ state, higher = stronger signaling	fold induction	10.8
